Published values gathered from unrelated publications.
Every numbered part comes from another study and shows a few of its results, in no order. “And” joins repeats or separate records; there may be more than shown.
UniProt P09769, sequence (whole entry, looked up): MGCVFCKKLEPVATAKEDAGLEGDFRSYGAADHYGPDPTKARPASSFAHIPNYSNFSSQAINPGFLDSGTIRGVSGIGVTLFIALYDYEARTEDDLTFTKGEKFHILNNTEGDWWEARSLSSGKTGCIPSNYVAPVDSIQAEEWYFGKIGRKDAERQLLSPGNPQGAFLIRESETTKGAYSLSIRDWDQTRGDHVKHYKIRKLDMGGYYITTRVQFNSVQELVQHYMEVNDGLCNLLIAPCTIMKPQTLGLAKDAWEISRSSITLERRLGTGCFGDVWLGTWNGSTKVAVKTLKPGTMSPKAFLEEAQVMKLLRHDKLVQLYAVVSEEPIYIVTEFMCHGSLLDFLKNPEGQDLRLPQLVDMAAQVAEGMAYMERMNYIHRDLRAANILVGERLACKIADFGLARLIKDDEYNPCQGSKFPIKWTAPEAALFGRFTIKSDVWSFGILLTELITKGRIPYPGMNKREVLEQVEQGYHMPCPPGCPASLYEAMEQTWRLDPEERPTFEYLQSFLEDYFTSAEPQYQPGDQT
UniProt O94921, sequence (whole entry, looked up): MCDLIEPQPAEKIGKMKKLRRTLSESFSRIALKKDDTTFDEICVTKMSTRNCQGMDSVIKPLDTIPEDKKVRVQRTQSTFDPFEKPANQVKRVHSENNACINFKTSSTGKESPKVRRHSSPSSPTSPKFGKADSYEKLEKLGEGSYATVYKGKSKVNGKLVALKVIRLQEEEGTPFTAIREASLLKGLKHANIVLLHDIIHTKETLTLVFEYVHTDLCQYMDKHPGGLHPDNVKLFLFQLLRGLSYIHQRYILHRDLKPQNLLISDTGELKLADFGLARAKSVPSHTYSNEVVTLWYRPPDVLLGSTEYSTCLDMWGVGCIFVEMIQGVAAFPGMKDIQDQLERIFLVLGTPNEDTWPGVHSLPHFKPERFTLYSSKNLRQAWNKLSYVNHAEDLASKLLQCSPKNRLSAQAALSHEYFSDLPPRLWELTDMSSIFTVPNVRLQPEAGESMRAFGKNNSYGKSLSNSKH
UniProt P08069, sequence (whole entry, looked up): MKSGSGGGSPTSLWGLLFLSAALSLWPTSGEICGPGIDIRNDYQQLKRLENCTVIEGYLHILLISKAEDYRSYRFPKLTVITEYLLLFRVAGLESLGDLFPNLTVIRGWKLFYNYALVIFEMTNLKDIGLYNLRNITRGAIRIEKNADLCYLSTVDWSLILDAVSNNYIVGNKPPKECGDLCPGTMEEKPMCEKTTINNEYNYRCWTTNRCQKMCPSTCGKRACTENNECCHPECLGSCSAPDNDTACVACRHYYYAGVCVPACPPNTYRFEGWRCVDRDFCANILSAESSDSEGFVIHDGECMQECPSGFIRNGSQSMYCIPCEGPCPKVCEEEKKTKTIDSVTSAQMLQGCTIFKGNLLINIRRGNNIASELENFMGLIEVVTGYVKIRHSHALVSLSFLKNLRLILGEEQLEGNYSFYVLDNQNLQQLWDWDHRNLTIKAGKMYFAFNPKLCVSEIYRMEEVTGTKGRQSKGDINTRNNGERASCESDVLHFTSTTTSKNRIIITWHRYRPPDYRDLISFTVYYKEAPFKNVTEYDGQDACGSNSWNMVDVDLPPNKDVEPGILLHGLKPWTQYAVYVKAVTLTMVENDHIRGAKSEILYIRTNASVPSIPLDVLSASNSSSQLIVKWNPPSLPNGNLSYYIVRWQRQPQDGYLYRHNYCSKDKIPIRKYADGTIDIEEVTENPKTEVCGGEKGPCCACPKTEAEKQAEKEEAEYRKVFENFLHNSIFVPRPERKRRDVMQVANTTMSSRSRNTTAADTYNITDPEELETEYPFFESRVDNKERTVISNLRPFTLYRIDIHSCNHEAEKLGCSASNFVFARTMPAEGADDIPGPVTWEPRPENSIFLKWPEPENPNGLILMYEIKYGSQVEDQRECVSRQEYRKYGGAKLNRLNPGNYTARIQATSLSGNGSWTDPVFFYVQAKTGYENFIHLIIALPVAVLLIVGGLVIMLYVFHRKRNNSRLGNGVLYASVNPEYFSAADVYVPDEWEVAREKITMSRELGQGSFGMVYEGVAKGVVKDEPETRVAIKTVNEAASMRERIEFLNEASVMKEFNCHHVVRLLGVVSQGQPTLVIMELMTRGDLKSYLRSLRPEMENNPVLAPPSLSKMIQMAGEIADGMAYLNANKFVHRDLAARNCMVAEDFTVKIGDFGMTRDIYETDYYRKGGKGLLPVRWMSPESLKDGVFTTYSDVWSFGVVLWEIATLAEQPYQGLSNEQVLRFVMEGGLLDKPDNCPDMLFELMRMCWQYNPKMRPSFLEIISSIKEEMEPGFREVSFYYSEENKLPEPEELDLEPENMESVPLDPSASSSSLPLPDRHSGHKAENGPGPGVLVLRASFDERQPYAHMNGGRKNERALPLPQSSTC
UniProt O14733, sequence (whole entry, looked up): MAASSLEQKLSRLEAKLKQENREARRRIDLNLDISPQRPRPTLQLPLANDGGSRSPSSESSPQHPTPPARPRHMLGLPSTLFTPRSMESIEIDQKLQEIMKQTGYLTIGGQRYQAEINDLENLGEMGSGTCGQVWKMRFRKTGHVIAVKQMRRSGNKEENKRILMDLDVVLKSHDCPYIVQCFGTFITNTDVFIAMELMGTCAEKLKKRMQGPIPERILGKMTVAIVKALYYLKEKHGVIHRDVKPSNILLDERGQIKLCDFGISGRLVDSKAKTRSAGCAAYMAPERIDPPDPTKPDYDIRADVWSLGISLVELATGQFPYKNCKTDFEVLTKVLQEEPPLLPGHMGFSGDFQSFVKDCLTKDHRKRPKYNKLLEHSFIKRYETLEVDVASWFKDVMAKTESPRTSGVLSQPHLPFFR
UniProt Q9UBE8, sequence (whole entry, looked up): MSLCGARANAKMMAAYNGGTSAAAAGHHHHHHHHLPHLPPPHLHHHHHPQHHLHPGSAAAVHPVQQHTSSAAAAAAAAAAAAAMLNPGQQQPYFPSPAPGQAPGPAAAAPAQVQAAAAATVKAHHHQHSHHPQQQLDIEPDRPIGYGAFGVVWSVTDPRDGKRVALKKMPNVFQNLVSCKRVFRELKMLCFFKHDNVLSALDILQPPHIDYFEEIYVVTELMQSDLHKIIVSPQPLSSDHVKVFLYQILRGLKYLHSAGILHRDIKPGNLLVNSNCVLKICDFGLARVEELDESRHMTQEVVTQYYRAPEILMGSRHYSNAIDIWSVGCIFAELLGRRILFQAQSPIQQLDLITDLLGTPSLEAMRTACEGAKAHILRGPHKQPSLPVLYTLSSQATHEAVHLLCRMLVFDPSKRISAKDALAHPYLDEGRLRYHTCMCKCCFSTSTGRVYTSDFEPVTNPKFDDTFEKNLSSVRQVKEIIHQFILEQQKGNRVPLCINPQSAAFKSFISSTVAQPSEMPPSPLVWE
UniProt Q86UE8, sequence (whole entry, looked up): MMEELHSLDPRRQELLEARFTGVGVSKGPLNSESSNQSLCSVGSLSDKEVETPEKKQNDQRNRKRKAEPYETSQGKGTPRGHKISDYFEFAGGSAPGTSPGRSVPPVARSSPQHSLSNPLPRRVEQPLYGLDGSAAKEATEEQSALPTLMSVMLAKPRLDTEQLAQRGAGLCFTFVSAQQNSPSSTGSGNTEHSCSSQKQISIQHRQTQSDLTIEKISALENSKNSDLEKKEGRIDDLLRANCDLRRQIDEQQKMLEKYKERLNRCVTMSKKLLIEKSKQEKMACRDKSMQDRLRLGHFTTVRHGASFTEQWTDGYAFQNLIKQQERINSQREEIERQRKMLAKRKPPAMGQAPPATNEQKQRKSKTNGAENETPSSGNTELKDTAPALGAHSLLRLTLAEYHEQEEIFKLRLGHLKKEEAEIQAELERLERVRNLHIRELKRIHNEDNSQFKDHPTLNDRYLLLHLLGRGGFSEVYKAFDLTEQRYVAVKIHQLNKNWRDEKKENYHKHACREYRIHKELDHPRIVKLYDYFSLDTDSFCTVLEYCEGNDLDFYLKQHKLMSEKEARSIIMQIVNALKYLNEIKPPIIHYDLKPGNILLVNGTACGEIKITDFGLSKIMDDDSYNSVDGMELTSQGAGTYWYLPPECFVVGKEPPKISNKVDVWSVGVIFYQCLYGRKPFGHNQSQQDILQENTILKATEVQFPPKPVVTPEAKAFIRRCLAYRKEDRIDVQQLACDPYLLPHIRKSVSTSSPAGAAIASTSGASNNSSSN
UniProt Q9BQI3, sequence (whole entry, looked up): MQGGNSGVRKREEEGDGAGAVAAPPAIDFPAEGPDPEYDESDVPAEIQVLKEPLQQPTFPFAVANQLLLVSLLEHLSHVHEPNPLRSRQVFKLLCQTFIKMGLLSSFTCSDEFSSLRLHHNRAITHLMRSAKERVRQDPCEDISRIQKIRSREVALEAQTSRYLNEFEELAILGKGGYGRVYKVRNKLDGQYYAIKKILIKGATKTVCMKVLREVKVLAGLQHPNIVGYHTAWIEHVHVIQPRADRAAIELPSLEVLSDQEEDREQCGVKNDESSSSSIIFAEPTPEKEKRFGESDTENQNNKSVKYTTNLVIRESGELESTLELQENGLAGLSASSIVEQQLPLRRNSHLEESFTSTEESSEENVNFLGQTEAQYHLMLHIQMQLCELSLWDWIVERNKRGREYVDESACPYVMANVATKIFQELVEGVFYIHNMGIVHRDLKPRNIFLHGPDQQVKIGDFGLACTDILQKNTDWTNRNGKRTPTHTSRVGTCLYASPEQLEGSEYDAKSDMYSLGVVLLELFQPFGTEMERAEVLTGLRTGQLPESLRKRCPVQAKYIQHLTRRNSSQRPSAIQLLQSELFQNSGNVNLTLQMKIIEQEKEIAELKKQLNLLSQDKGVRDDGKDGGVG

Series 1 — observed: cell-free assay; technique: competition with immobilised ligand; tested at: 0.1 µM
SMILES: Cc1c[nH]c2nccc(Oc3c(F)cc(Nc4cc(Cl)nc(N)n4)cc3F)c12
| target | remaining binding [%] |
| --- | --- |
| IGF1R (Homo sapiens, UniProt P08069) | 86 |
| RET (Homo sapiens, UniProt P07949, V804M) | 100 |
| TLK2 (Homo sapiens, UniProt Q86UE8) | 95 |
| CSNK1D (Homo sapiens, UniProt P48730) | 100 |
| FGR (Homo sapiens, UniProt P09769) | 100 |
| TBK1 (Homo sapiens, UniProt Q9UHD2) | 96 |
| Tyrosine-protein kinase ABL1, phosphorylated (ABL1, Homo sapiens, UniProt P00519, Q252H) | 91 |
| CDKL5 (Homo sapiens, UniProt O76039) | 73 |
| CDC42BPA (Homo sapiens, UniProt Q5VT25) | 98 |
| MAPK4 (Homo sapiens, UniProt P31152) | 81 |
| EIF2AK1 (Homo sapiens, UniProt Q9BQI3) | 77 |
| MAP2K7 (Homo sapiens, UniProt O14733) | 67 |
| PIP5K1C (Homo sapiens, UniProt O60331) | 78 |
| PIK3CA (Homo sapiens, UniProt P42336, M1043I) | 66 |
| IRAK1 (Homo sapiens, UniProt P51617) | 90 |
| MARK3 (Homo sapiens, UniProt P27448) | 74 |
| PAK3 (Homo sapiens, UniProt O75914) | 86 |
| Ribosomal protein S6 kinase alpha-4, C-terminal kinase domain (RPS6KA4, Homo sapiens, UniProt O75676) | 83 |
| Tyrosine-protein kinase JAK1, JH2 (JAK1, Homo sapiens, UniProt P23458) | 84 |
| TAOK3 (Homo sapiens, UniProt Q9H2K8) | 100 |
| SRPK2 (Homo sapiens, UniProt P78362) | 75 |
| Tyrosine-protein kinase ABL1, phosphorylated (ABL1, Homo sapiens, UniProt P00519, T315I) | 84 |

Series 2 — species: human; matrix: microsomes or S9; tested at: 2 µM; time: 0.5 h
| Compound | remaining compound [%] |
| --- | --- |
| O=C(Nc1ccccc1)C1CCCN1C1=NS(=O)(=O)c2ccccc21 (stereo not drawn) | 99.6 |
| Nc1cc(C2=NOC3CCCCC23)nc(C(=O)O)c1Cl (stereo not drawn) | > 99 |
| COc1cc(C(=O)Nc2cnn(CCCC(=O)O)c2)cc(OC)c1OC | > 99.9 |
| CO[C@@H]1COC[C@@H]1NC(=O)NC1Cc2ccccc2C1 | > 100 |
| COc1cc(OC)c(C2Nc3cc(C)c(C)cc3NC3=C2C(=O)CC(C)(C)C3)cc1OC (stereo not drawn) | 24 |
| OC(CNc1ncnc2nc[nH]c12)c1ccc2ccccc2c1 (stereo not drawn) | 78.6 |
| COc1ccc(OC)c(NC(=O)c2ccc(N(C)S(=O)(=O)c3ccc(OC)c(OC)c3)cc2)c1 | 79.5 |
| CCC(=O)OC(COC)c1ccccc1CS(N)(=O)=O (stereo not drawn) | 80.1 |

Series 3 — SMILES: CCOc1ccc(Nc2c3c(nc4ccccc24)CCC3)cc1; organism: Leishmania donovani; strain: DD8
| test | system | setting | inhibition |
| --- | --- | --- | --- |
| parasite killing | intracellular amastigotes | 2 µM, 48 h | 54% and 57% and 60% |
| parasite killing | intracellular amastigotes | 40 µM, 24 h | 100% |
| parasite viability, resazurin | promastigotes | 6.66 µM | 86% and 85% and 80% and 84% and 89% and 81% |
| parasite viability, resazurin | promastigotes | 0.33 µM | -4% and 4% and -1% and 0% and -3% and 5% |
| parasite killing | promastigotes | 6.66 µM, 96 h | 81% and 82% and 80% |

Series 4
Structure (SMILES): CC(C)n1cnc(-c2ccc(F)cc2)c1-c1ncc(C(=O)Nc2ccc(N3CCN(C)CC3)cc2)[nH]1
| test | system | setting | patients with decreased appetite [%] |
| --- | --- | --- | --- |
| phase 2a trial | idiopathic pulmonary fibrosis patients | 30 mg once daily, adverse event grade 1 | 0 |
| phase 2a trial | idiopathic pulmonary fibrosis patients | dose not given, adverse event grade 3, all dose arms pooled | 0 |
| phase 2a trial | idiopathic pulmonary fibrosis patients | 30 mg once daily, adverse event grade 5 | 0 |
| – | human, idiopathic pulmonary fibrosis | 30 mg once daily, trial, treatment-emergent | 0 |
| phase 2a trial | idiopathic pulmonary fibrosis patients | dose not given, adverse event grade 4, all dose arms pooled | 0 |
| phase 2a trial | idiopathic pulmonary fibrosis patients | 30 mg once daily, adverse event grade 4 | 0 |

Series 5 — observed: binding; tested at: 1 µM
SMILES: COc1ccc2[nH]c3c4[nH]c5ccc(OC)cc5c4c4c(c3c2c1)C(=O)NC4=O
| target | test | remaining binding |
| --- | --- | --- |
| MAPK13 (Homo sapiens, UniProt O15264) | competition with immobilised ligand | 86% |
| CDK14 (Homo sapiens, UniProt O94921) | competition with immobilised ligand | 85% |
| SGK1 (Homo sapiens, UniProt O00141) | – | 6.8% |
| CDK11B (Homo sapiens, UniProt P21127) | competition with immobilised ligand | 90% |
| MATK (Homo sapiens, UniProt P42679) | – | 93% |
| NLK (Homo sapiens, UniProt Q9UBE8) | competition with immobilised ligand | 52% |
| SIK3 (Homo sapiens, UniProt Q9Y2K2) | competition with immobilised ligand | 56% |

Some of these lines once more (series 3):
| test | system | setting | inhibition |
| --- | --- | --- | --- |
| parasite killing | promastigotes | 6.66 µM, 96 h | 81% and 82% and 80% |
| parasite killing | intracellular amastigotes | 2 µM, 48 h | 54% and 57% and 60% |
| parasite viability, resazurin | promastigotes | 6.66 µM | 86% and 85% and 80% and 84% and 89% and 81% |
